Results pooled from the literature.
Parts stem from different laboratories: compare values within a part only. Substitutions count along the parent as printed.
Sequence of UniProt P53350 (whole entry, looked up): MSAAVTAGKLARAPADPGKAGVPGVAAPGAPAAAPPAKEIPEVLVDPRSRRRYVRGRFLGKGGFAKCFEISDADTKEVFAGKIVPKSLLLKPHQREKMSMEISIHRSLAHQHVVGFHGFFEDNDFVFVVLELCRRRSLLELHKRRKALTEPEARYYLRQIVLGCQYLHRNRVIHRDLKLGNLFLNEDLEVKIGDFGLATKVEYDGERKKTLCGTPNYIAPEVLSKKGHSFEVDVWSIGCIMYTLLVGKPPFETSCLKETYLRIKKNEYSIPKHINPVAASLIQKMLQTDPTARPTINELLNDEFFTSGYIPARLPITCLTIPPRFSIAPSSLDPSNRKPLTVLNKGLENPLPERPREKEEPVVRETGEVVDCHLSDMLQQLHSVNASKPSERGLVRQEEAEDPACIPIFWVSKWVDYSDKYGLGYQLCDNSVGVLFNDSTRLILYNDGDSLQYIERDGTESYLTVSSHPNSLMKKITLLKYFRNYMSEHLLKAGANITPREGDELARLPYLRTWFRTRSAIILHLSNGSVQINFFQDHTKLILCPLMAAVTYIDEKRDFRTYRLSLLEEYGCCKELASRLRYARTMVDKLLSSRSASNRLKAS

Series 1
Target: ABI1, truncated, D143A, DHFR fusion (Arabidopsis thaliana, UniProt P49597)
Method: DHFR PCA, dose-response
Matrix: yeast
Notes: Hill fit, not affinity, not high confidence
With: (+)-ABA, dose series
Reading: lower = more sensitive
Starting sequence: PYL1, truncated, DHFR fusion (Arabidopsis thaliana, UniProt Q8VZS8); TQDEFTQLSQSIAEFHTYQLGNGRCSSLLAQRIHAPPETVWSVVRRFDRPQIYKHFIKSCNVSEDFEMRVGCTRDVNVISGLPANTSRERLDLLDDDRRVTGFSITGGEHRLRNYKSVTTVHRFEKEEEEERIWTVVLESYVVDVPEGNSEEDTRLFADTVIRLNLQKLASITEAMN
With `V121W` the ABA EC50 was 8.65 µM.
For `Y115G`, the ABA EC50 was 0.0365 µM.
For `N114P`, the ABA EC50 was 2420 µM.
With `F157H` the ABA EC50 was 470 µM.
`W41L` gave an ABA EC50 of 64 µM.
`Y115H` gave an ABA EC50 of 507 µM.
For `D48I`, the ABA EC50 was 585 µM.
For `Y53E`, the ABA EC50 was 2.37 µM.

Series 2
Target: RING finger protein unkempt homolog, zinc fingers 1-6, GST-SBP tag (UNK, Homo sapiens, UniProt Q9C0B0, residues 30-357)
Sequence of UniProt Q9C0B0 (30-357, looked up): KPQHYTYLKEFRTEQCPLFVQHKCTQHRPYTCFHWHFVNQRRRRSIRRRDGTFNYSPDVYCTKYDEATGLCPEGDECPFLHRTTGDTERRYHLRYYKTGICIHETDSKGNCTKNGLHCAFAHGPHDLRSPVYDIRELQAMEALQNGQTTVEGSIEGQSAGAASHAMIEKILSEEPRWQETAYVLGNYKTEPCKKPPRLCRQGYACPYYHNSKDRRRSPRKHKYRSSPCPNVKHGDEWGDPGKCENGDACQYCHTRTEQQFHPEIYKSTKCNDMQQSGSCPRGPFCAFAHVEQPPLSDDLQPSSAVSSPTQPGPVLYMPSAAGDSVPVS
Method: RNA Bind-n-Seq
Form: RNA
Matrix: in vitro
Concentration: not given
Notes: RNA with constant flanks, human and mouse sites, ends assumed
Relative to: input RNA pool
Reading: higher = stronger binding
For `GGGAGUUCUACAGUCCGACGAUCAAUCAGUUUGAGACAGAAUUAUGAAUAGAGAUCUAUCAGUAACUUUUGCAUUUCACACCAUAGCUAGAGUUUGGCUCACCAAUAACUUGUAUAUAUUUUGAAUGGGAAACACAUGGGUGCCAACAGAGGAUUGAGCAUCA`, the bound/input enrichment was 4.11 ratio.
`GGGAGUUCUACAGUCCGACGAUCUUCUUUUCUUUUCUUUUCUUUUCUUUUCUUUUCUUUUCUUUUCUUUUUUCUUUUUUUUUUUUUAGGCAGUGUGUUGCUAAACAGCCCUGGCUGGCCUGGGACUUGCUAUGUAGACCAGGCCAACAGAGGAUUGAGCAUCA` gave a bound/input enrichment of 32.7 ratio.
The bound/input enrichment of `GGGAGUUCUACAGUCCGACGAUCUGCAUUCUACGGCUGUUGGCCCAUUCAUGUCCUCUUGAUGUAUAUGCUGCUUGCCAGAGGUUAGCUUUCUGCAUACUUCAGCCCAUAAUAAUGAAAUCAGCAGUACUCACAUAUUUUGGGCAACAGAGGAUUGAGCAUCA` is reported as 0.147 ratio.
The bound/input enrichment of `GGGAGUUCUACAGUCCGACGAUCCAUCAGGAUGUUCCAUCUCAGGAUGAUUCCAAACCAACCCAGAGGCAAUUUACUAUUCUCAACUUUAAUGAUUUAAUGUCAUCUGCCGUUCCCAUGACACCUGAAGAUCCUUCAUUUUGGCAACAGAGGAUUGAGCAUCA` is reported as 0.157 ratio.
`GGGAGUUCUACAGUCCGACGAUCGGAAGCCUAAAGUCUGUGGAAGCUAUUCUAGAAGAAAGCACUGAAAAACUCAAAAGCUUGUCACUGCAGCAACAGCAGGAUGGAGAUAAUGGGGACAGCAGCAAAAGUACUGAGACAAGUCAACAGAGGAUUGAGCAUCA` gave a bound/input enrichment of 0.374 ratio.
`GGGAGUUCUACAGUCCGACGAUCAAGUGCUUAUGAUUCAAUUAAUCUACAUUUUGGUAAUCAAUUAUAAAAUACUUUUUAAAUUAGUAUUGGCUAUUUUUUUUUUUUACCCUGGGAAGAUGCUGUCUGCUCACAGGAGUCCCACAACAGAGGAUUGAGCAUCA` gave a bound/input enrichment of 5.2 ratio.
The bound/input enrichment of `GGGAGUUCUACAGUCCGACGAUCGAAAUAUGUGGCAAGGCCUUCAAAUAUCCAUCAAGACUUUUAAAACAUAAGAUAAUUCAUACAAGAGAGAAACAAUACAAGUGUAAAGUGUGUGGAAAUGCCUUCUGCACUCCAUCUUCACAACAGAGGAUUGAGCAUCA` is reported as 0.269 ratio.
With `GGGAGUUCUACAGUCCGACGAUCGGACCGACUGUGUACGACCAUGCACAUCUUGGCCAUGCUUGCUCCUAUGUUAGAUUUGACAUUAUCCGGAGGAUCCUGACCAGAGUGUUUGGAUGCAAUGUGGUCAUGGCGAUGAGCAUUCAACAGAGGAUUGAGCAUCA` the bound/input enrichment was 0.156 ratio.

Series 3
Target: Interferon regulatory factor 5, full length, phosphomimetic (IRF5, Homo sapiens, UniProt Q13568-2, residues 1-514, K96S/S451D/S453D/S456D/S462D)
Method: protein-binding microarray
Form: double-stranded DNA, one strand shown
Matrix: in vitro
Concentration: 250 nM
Notes: 60-bp whole probe
With: salmon DNA 0.4 mg/ml
Relative to: random background probes
Reading: higher = stronger binding
All sequences stand within: GCCTAGCAC … GTCTTGATTCGCTTGACGCTGCTG
For `GACGGTATTCTTATCCTGACGTGCTAG`, the log fluorescence was 0.0247 z-score.
`TCATCTCCCATTATATTACTGTGCTAG` has a log fluorescence of 0.499 z-score.
The log fluorescence of `GTCGATATCGGGACTGGAGACGTGCTA` is reported as 1.75 z-score.
`TTAGGACTGGGTCTCTGTTAGTGCTAG` has a log fluorescence of -0.454 z-score.
`TTAGGACTGCATATCCTTTAGTGCTAG` has a log fluorescence of -0.442 z-score.
With `TTAGGTTTCCTGTCCCTTTAGTGCTAG` the log fluorescence was 0.275 z-score.
`TTAGGTTTCCTTTTACTTTAGTGCTAG` has a log fluorescence of 1.73 z-score.
`TCATTATTAAAACTTCATACTGTGCTA` gave a log fluorescence of 0.912 z-score.

Other studies, line by line
`CCCCN(CCCC)C(=O)CN1C[C@@H](c2cc(OC)c3c(c2)OCO3)[C@H](C(=O)O)[C@H]1CC(C)(C)CCC` gave a remaining binding of 100% (Serine/threonine-protein kinase PLK1 (PLK1, Homo sapiens, UniProt P53350); cell-free assay, competition with immobilised ligand; 1 µM).

A few entries again (series 1):
`Y115H` gave an ABA EC50 of 507 µM.
